Experimental data pooled from the literature.
A part holds a random share of what one study measured.
Chain of UniProt P42336 (whole entry, unmodified, looked up): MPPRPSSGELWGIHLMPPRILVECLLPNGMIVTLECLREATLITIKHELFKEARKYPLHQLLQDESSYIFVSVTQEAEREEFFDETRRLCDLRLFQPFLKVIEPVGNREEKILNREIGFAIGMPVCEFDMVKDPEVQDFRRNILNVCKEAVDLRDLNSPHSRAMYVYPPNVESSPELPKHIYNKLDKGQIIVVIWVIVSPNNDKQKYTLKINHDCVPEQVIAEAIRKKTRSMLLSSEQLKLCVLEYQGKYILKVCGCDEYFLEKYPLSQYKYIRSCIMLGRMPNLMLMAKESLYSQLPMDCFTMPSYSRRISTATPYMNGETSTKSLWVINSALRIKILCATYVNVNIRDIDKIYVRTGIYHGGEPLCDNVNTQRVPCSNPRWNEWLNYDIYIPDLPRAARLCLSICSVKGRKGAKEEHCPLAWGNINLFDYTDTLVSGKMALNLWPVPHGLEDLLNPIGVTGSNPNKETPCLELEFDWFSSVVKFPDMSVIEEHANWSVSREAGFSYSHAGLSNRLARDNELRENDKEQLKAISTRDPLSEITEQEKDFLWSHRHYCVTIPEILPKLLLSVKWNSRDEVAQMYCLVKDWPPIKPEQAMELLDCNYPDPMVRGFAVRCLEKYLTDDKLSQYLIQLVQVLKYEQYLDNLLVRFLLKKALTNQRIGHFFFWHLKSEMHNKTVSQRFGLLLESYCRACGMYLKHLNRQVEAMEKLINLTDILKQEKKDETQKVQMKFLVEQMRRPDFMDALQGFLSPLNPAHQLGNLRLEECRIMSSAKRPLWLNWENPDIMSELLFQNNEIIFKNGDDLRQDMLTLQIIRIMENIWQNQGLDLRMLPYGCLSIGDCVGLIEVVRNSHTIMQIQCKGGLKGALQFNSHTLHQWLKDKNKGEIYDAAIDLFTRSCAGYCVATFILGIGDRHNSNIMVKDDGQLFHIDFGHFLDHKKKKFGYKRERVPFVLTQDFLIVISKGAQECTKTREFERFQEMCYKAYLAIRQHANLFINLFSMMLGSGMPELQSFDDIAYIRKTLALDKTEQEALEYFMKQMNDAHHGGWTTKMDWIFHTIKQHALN
Chain of UniProt O15146 (whole entry, looked up): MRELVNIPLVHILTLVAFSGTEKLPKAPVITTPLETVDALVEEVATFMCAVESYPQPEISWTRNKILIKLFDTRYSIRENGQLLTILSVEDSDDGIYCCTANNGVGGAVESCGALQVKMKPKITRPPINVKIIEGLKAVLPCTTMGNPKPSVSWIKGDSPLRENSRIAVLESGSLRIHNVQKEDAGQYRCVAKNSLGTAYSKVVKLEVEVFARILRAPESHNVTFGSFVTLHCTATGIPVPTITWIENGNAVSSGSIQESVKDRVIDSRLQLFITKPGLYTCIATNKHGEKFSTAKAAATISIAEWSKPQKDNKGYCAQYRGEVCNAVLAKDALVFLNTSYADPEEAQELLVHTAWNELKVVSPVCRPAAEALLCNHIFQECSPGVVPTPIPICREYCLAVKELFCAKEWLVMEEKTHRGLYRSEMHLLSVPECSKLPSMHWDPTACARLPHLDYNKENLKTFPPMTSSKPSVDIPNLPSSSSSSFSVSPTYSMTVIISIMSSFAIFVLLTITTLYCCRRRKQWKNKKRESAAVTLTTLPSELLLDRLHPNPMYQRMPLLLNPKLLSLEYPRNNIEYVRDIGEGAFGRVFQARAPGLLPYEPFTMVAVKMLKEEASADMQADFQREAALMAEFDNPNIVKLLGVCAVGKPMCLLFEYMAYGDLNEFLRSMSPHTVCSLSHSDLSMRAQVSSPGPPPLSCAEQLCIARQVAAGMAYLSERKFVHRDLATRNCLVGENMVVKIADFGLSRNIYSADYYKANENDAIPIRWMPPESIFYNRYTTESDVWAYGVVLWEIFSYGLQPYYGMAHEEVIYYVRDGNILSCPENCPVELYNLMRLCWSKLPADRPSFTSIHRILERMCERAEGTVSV
Chain of UniProt Q15746 (whole entry, looked up): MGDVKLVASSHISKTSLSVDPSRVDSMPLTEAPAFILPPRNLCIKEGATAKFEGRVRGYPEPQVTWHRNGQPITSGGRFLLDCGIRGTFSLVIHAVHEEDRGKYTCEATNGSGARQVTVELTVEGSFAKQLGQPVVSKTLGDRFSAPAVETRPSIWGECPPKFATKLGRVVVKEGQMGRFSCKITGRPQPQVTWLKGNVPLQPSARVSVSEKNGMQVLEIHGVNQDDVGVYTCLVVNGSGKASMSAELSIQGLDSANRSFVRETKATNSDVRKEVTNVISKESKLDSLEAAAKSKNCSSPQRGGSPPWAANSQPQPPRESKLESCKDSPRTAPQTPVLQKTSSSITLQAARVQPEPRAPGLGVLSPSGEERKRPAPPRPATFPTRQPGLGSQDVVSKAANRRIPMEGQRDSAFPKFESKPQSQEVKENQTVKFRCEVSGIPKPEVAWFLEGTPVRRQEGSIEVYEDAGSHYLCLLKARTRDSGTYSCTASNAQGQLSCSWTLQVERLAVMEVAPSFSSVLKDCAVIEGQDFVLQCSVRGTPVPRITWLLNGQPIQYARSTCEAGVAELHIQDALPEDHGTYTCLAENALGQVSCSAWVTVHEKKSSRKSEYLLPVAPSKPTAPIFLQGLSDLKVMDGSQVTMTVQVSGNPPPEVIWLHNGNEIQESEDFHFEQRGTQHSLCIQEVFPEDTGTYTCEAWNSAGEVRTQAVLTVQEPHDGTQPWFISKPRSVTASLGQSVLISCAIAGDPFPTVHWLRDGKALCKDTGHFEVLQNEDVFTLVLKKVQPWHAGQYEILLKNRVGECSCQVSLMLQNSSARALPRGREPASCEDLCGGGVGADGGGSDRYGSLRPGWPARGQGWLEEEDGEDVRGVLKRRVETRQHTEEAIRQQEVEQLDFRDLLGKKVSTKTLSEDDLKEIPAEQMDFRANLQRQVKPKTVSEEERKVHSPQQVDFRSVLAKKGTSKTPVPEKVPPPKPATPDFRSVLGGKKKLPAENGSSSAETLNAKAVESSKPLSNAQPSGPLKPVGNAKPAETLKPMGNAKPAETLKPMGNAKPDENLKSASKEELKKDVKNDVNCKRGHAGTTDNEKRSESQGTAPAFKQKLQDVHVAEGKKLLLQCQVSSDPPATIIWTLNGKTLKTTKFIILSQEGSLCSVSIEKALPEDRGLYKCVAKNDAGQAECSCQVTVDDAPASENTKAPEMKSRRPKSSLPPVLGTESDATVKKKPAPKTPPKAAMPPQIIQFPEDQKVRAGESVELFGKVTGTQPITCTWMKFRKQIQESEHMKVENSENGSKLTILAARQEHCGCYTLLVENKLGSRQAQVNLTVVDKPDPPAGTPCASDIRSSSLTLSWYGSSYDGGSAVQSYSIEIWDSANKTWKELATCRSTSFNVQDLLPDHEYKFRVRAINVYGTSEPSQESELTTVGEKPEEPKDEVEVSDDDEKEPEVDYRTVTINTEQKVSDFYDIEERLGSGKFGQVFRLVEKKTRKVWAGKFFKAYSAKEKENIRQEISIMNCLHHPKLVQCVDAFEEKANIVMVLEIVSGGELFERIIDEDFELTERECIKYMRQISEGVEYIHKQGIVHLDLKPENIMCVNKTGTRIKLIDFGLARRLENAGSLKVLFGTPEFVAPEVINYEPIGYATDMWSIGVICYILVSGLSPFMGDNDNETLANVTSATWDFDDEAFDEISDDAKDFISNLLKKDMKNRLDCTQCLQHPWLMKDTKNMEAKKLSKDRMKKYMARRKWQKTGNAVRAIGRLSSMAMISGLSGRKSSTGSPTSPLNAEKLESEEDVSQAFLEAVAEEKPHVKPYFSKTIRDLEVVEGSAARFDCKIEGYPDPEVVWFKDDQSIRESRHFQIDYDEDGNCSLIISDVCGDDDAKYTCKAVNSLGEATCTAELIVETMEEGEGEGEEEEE
Chain of UniProt Q92630 (whole entry, looked up): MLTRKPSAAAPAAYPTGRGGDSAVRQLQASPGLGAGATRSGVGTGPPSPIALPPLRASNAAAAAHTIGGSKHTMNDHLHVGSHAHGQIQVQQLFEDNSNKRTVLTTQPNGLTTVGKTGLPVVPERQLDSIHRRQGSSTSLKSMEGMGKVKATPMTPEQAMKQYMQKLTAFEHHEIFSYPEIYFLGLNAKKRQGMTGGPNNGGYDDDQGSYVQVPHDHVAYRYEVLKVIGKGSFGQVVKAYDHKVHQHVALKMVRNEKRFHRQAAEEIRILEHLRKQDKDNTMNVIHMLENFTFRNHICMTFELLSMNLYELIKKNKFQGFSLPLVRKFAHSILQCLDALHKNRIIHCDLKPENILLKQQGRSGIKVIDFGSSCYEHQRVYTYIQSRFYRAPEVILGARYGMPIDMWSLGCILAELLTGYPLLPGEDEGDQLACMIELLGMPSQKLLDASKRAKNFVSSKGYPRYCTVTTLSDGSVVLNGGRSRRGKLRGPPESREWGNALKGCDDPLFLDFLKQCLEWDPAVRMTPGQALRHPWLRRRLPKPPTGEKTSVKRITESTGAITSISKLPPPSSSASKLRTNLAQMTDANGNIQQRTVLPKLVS

Block 1
Compound: CCc1ccccc1C(=O)Nc1n[nH]c2c(C)c(F)c(C3C(C#N)=C(C)N(C)C(C)=C3C#N)cc12
Technique: competition with immobilised ligand
Concentration: 1 µM
| target | assay | remaining binding |
| --- | --- | --- |
| DYRK2 (Homo sapiens, UniProt Q92630) | cell-free assay | 82% |
| MYLK (Homo sapiens, UniProt Q15746) | binding | 55% |
| GRK1 (Homo sapiens, UniProt Q15835) | cell-free assay | 43% |
| Tyrosine-protein kinase ABL1, phosphorylated (ABL1, Homo sapiens, UniProt P00519, H396P) | cell-free assay | 97% |
| NEK2 (Homo sapiens, UniProt P51955) | cell-free assay | 87% |
| PRKCI (Homo sapiens, UniProt P41743) | cell-free assay | 82% |
| CDKL5 (Homo sapiens, UniProt O76039) | binding | 100% |
| ULK2 (Homo sapiens, UniProt Q8IYT8) | cell-free assay | 100% |
| MAP3K12 (Homo sapiens, UniProt Q12852) | cell-free assay | 94% |
| HIPK4 (Homo sapiens, UniProt Q8NE63) | cell-free assay | 100% |
| PIK3CA (Homo sapiens, UniProt P42336, I800L) | cell-free assay | 100% |
| KIT (Homo sapiens, UniProt P10721, V559D) | cell-free assay | 83% |
| MUSK (Homo sapiens, UniProt O15146) | cell-free assay | 83% |

Block 2
Target: Death-associated protein kinase 2 (DAPK2, Homo sapiens, UniProt Q9UIK4)
Chain of UniProt Q9UIK4 (whole entry, looked up): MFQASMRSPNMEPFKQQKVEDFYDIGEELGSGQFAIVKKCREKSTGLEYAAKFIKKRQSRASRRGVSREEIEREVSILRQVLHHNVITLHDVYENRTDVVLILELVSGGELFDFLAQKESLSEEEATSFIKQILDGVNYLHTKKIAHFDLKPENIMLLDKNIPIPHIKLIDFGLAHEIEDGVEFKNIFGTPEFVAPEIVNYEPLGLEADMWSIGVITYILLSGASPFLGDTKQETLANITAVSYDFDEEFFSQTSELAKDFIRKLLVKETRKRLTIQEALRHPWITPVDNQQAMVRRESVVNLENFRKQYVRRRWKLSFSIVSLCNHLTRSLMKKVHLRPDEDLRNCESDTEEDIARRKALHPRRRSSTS
Effect on: enzyme activity
Action: inhibitor
Concentration: 0.5 µM
Reference: control
| SMILES | remaining activity |
| --- | --- |
| COc1cc2nccc(Oc3ccc(NC(=S)NC(=O)c4ccccc4C)cc3)c2cc1OC | 78.7% |
| COc1ccc(C(=O)Nc2sc3c(c2C(N)=O)CCCC3)cc1OC | 106% |
| OCC(O)CCON=C1C(c2c(O)[nH]c3ccccc23)=Nc2ccccc21 (stereo not shown) | 104% |
| Nc1ncnc2n[nH]c(Nc3ccc(F)cc3)c12 | 85.5% |
| O=C1NC(=O)C(c2cn(CCCO)c3ncccc23)=C1c1cnccn1 | 88.4% |
| O=S(=O)(c1cccc2cnccc12)N1CCCNCC1 | 83.6% |
| Cc1ccc(Nc2nccc(N(C)c3ccc4c(C)n(C)nc4c3)n2)cc1S(N)(=O)=O | 93% |
| Cn1c2ccccc2c2c3c(c4c5ccccc5n(CCC#N)c4c21)CNC3=O | 84.4% |
| C#Cc1cccc(Nc2ncnc3cc(OCCOC)c(OCCOC)cc23)c1 | 92.5% |

Block 3
Target: Interferon regulatory factor 7, full length, phosphomimetic (IRF7, Homo sapiens, UniProt Q92985, residues 1-503, S471D/S472D/S475D/S476D/S477D/S483D/S484D/S487D)
Technique: protein-binding microarray
Form: double-stranded DNA, one strand shown
Medium: in vitro
Concentration: 2200 nM top
Setting: 60-bp whole probe
With: salmon DNA 0.4 mg/ml
Reference: random background probes
Reading: higher = stronger binding
All sequences stand within: GCCTAGCAC … GTCTTGATTCGCTTGACGCTGCTG
Target sequence (chain): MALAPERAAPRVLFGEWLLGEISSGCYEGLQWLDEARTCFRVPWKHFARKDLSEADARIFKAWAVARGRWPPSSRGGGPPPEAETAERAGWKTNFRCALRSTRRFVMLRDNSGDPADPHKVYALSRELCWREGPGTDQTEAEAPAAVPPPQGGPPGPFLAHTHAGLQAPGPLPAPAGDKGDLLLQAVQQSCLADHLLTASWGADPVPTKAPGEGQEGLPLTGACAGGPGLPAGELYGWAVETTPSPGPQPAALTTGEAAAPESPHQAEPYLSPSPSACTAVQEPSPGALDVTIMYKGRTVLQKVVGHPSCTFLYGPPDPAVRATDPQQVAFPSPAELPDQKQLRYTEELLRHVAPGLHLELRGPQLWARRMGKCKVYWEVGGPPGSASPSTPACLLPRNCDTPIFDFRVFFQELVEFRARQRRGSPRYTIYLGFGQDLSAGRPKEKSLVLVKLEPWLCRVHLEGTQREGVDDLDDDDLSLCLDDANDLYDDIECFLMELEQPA
| Oligonucleotide | fitted relative affinity [z-score] |
| --- | --- |
| AAACGGGCTTCTTTTTCTCAGGTGCTA | -0.25 |
| GACGAACTGGGGAATCGAGACGTGCTA | 0.0242 |
| TCAAATTTTTTTTCTAAACTGTGCTAG | -0.0269 |
| AGGAAGACATCAAAGAGAGCGTGCTAG | -1.06 |
| TTTCCTTTATGTCCTGTCTAGTGCTAG | 4.74 |
| CAAGGCAAGAAACAAACAACGTGCTAG | -1.11 |
| TTAGGTATCCTTATGCTTTAGTGCTAG | 0.508 |
| TTTCCTATGTCATTTACATTGTGCTAG | 3.47 |

Mixed results
Technique: cross-linking MS
| Substance | partner | test system | setting | measurement | result |
| --- | --- | --- | --- | --- | --- |
| VPS13A (Homo sapiens, UniProt Q96RL7) | CCT7 (Homo sapiens, UniProt Q99832) | cell fractions | with: DSSO | cross-linked residues | T2636 to K320 |
| UBR3 (Homo sapiens, UniProt Q6ZT12) | SERBP1 (Homo sapiens, UniProt Q8NC51) | cell fractions | with: DSSO | cross-linked residues | S1502 to K102 |
| SNRPC (Homo sapiens, UniProt P09234) | SNRPD3 (Homo sapiens, UniProt P62318) | – | hits only | interaction screen | cross-linked |
| NAT10 (Homo sapiens, UniProt Q9H0A0) | ESF1 (Homo sapiens, UniProt Q9H501) | cell fractions | with: DMTMM | cross-linked residues | D244 to K822 |

A few entries again (block 2):
| SMILES | remaining activity |
| --- | --- |
| C#Cc1cccc(Nc2ncnc3cc(OCCOC)c(OCCOC)cc23)c1 | 92.5% |
| Cc1ccc(Nc2nccc(N(C)c3ccc4c(C)n(C)nc4c3)n2)cc1S(N)(=O)=O | 93% |
| O=S(=O)(c1cccc2cnccc12)N1CCCNCC1 | 83.6% |
| Nc1ncnc2n[nH]c(Nc3ccc(F)cc3)c12 | 85.5% |
